Results collected from several papers.
Every numbered part comes from another study and shows a few of its results, in no order.
Chain of UniProt P48730 (whole entry, looked up): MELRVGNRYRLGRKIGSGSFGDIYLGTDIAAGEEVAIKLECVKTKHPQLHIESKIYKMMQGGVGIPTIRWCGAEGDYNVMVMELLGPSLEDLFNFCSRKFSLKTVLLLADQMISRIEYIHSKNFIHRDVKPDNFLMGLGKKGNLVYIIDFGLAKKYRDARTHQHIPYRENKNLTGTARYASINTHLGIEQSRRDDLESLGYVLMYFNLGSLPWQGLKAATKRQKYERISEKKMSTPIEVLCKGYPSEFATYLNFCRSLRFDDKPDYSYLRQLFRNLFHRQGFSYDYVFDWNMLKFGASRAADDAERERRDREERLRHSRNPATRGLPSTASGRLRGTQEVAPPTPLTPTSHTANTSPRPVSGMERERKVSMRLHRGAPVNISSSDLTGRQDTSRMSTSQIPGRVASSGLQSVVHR
Chain of UniProt O75460 (whole entry, looked up): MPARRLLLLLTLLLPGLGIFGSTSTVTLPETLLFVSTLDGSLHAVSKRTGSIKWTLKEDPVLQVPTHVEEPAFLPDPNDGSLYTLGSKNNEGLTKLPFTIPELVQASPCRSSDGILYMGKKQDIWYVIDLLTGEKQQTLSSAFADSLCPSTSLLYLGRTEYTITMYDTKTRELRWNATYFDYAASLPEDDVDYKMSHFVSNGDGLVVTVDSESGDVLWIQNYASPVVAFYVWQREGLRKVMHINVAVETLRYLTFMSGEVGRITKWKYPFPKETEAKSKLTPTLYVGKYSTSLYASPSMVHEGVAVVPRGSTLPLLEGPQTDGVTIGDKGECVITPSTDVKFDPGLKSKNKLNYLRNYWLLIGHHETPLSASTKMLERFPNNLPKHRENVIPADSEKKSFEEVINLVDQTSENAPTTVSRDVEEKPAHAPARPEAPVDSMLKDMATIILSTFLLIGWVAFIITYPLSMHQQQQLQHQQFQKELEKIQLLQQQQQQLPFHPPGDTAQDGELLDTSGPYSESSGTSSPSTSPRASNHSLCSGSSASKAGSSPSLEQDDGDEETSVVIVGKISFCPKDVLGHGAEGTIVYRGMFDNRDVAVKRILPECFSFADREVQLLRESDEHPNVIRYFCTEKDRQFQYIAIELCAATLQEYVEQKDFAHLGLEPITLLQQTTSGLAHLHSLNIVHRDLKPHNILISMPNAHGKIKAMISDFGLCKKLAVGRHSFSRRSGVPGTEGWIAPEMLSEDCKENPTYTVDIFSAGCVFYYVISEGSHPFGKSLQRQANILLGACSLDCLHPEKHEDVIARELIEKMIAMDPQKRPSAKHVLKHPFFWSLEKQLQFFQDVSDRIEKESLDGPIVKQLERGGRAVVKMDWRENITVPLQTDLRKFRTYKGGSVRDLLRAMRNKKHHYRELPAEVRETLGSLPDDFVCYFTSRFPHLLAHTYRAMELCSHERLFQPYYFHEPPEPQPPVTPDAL
Chain of UniProt Q14004 (whole entry, looked up): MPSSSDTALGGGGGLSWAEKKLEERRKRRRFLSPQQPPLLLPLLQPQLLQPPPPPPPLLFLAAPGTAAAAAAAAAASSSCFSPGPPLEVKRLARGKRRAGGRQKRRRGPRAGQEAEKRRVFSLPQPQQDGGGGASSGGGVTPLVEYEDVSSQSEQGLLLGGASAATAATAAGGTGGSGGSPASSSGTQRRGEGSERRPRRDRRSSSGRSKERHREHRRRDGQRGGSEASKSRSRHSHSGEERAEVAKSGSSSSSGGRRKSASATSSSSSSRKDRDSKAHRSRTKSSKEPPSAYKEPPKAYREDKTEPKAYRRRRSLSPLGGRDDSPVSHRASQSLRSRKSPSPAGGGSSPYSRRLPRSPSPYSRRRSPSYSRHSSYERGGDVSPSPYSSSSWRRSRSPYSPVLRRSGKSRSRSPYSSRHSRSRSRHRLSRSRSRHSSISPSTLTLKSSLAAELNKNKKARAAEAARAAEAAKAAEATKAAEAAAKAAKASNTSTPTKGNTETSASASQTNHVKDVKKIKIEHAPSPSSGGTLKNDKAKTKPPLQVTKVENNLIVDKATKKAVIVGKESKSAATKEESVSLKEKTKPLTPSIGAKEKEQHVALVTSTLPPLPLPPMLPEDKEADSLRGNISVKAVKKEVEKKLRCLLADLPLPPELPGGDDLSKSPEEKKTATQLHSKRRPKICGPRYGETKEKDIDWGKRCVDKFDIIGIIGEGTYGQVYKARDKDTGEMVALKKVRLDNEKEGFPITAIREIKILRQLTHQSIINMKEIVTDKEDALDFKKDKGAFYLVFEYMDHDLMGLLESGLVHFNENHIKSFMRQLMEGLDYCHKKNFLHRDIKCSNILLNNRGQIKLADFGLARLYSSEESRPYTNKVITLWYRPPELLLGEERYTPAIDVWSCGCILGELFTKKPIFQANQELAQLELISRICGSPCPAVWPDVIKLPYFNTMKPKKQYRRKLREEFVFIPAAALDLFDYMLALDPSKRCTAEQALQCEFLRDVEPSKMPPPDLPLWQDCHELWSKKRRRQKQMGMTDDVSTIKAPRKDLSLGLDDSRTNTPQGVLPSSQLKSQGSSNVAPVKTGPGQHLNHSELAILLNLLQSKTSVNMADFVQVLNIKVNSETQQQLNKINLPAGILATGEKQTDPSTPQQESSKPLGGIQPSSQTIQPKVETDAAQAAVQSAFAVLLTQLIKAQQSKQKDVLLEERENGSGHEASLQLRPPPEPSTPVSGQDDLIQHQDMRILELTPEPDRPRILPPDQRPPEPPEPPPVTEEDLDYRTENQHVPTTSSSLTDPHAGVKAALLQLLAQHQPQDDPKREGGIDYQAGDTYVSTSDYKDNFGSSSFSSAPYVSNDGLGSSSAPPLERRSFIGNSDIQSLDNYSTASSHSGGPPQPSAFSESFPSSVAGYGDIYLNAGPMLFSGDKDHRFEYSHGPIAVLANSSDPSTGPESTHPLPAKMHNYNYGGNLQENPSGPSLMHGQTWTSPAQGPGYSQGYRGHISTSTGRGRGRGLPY
Chain of UniProt P11362 (whole entry, looked up): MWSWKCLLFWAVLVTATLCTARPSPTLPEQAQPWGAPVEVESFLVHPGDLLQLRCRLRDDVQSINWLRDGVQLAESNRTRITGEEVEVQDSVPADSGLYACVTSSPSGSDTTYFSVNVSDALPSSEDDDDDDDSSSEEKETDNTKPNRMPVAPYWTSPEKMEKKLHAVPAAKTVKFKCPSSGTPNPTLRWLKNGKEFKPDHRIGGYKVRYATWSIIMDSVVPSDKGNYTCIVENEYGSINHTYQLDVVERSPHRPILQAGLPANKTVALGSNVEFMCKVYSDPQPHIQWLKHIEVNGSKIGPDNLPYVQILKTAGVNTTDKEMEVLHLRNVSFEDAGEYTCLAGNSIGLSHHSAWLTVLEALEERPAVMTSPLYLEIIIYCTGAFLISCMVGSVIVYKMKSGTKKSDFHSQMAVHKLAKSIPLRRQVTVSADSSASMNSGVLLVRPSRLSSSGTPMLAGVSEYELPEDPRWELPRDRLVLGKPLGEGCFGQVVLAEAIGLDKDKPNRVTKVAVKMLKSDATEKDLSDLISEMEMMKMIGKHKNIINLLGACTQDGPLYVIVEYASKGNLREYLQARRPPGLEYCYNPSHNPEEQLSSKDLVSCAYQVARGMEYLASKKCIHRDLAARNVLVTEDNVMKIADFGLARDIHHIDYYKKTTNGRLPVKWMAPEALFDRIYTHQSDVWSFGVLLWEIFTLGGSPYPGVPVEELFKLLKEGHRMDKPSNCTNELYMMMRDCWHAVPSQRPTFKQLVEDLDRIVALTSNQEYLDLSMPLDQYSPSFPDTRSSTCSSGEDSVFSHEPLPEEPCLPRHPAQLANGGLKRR
Chain of UniProt Q96L34 (whole entry, looked up): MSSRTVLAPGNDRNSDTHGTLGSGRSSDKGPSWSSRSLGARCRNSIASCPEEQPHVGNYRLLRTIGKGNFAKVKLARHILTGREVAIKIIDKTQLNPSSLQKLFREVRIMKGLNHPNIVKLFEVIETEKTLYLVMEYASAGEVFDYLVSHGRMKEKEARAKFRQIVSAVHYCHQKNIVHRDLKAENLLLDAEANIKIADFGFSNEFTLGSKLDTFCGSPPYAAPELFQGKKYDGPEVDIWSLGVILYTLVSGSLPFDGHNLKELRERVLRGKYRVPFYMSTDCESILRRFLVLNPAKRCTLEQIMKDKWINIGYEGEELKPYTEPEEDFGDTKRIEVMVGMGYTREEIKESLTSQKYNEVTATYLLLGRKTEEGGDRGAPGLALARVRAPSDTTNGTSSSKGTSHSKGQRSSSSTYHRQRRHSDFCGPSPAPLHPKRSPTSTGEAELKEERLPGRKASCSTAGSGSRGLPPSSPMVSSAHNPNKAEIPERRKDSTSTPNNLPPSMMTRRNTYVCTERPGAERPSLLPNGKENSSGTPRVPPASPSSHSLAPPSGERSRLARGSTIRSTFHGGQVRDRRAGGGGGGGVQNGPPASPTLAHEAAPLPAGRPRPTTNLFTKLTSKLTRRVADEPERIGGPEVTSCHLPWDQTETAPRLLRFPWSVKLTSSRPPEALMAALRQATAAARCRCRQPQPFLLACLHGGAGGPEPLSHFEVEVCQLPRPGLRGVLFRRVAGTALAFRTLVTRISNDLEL

Study 1 — method: competition with immobilised ligand; tested at: 1 µM
SMILES: CN(C)C(=O)Cn1cc(-c2nc(C3(c4ccc(-c5cnc(N)nc5)cc4)CC3)no2)cn1
target	assay	remaining binding
Casein kinase I isoform alpha-like (CSNK1A1L, Homo sapiens, UniProt Q8N752)	cell-free assay	98%
Bone morphogenetic protein receptor type-1B (BMPR1B, Homo sapiens, UniProt O00238)	cell-free assay	99%
Casein kinase I isoform delta (CSNK1D, Homo sapiens, UniProt P48730)	cell-free assay	100%
RAC-beta serine/threonine-protein kinase (AKT2, Homo sapiens, UniProt P31751)	cell-free assay	100%
Fibroblast growth factor receptor 1 (FGFR1, Homo sapiens, UniProt P11362)	cell-free assay	72%
Tyrosine-protein kinase TXK (TXK, Homo sapiens, UniProt P42681)	binding	98%
Activin receptor type-1B (ACVR1B, Homo sapiens, UniProt P36896)	cell-free assay	84%
Cyclin-dependent kinase 13 (CDK13, Homo sapiens, UniProt Q14004)	cell-free assay	91%
Mitogen-activated protein kinase kinase kinase kinase 2 (MAP4K2, Homo sapiens, UniProt Q12851)	cell-free assay	89%
Myotonin-protein kinase (DMPK, Homo sapiens, UniProt Q09013)	cell-free assay	82%
Dual specificity tyrosine-phosphorylation-regulated kinase 1B (DYRK1B, Homo sapiens, UniProt Q9Y463)	cell-free assay	66%
Serine/threonine-protein kinase 10 (STK10, Homo sapiens, UniProt O94804)	cell-free assay	100%
Serine/threonine-protein kinase/endoribonuclease IRE1 (ERN1, Homo sapiens, UniProt O75460)	cell-free assay	69%
MAP/microtubule affinity-regulating kinase 4 (MARK4, Homo sapiens, UniProt Q96L34)	cell-free assay	96%
Epidermal growth factor receptor (EGFR, Homo sapiens, UniProt P00533, T790M)	cell-free assay	80%
Mitogen-activated protein kinase kinase kinase 15 (MAP3K15, Homo sapiens, UniProt Q6ZN16)	cell-free assay	100%
Proto-oncogene tyrosine-protein kinase Src (SRC, Homo sapiens, UniProt P12931)	cell-free assay	84%
Serine/threonine-protein kinase MRCK beta (CDC42BPB, Homo sapiens, UniProt Q9Y5S2)	cell-free assay	85%

Study 2 — method: protein-binding microarray; molecule type: double-stranded DNA, one strand shown; matrix: in vitro; tested at: 2540 nM top; setting: 60-bp whole probe; added: salmon DNA 0.4 mg/ml; baseline: random background probes; reading: higher = stronger binding; all sequences stand within: GCCTAGCAC … GTCTTGATTCGCTTGACGCTGCTG
Target: Interferon regulatory factor 3, full length, phosphomimetic (IRF3, Homo sapiens, UniProt Q14653, residues 1-427, S386D/S396D/S398D/S402D/T404D/S405D)
Residues (chain): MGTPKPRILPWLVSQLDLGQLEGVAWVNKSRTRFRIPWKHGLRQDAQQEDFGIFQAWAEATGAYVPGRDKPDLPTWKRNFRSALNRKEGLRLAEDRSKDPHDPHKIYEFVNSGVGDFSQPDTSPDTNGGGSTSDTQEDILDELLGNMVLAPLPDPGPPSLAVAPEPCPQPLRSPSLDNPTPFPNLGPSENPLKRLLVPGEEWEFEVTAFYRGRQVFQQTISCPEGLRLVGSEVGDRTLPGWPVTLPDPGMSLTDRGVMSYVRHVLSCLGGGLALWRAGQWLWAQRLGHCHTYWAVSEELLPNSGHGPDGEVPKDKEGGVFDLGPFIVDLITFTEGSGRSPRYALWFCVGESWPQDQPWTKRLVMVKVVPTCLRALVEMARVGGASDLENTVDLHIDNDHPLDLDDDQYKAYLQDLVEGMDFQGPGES
Oligonucleotide	fitted relative affinity [z-score]
TTAGGTTTCAGGTATCGGTTAGTGCTA	3.25
TTAGGTATCGGGACTGGGCTAGTGCTA	1.04
TTAGATATCGGACTGGATTAGTGCTAG	0.201
GACGATAGCAGACTGGAGACGTGCTAG	-0.642
TTAGAATTCGGGTTTCGATTAGTGCTA	2.29
GACGATTTCGGGTTTCGAGCCGTGCTA	2.5
TTAGGACTGCTTTTCCATTAGTGCTAG	0.376
TCATTCTTCCCTGTGAAACTGTGCTAG	2.03

Study 3 — method: protein binding microarray; molecule type: double-stranded DNA, one strand shown; matrix: in vitro; tested at: not given; baseline: not given; reading: higher = stronger binding
Target: Histone acetyltransferase KAT6A, winged helix 1, GST fusion (KAT6A, Homo sapiens, UniProt Q92794, residues 1-85)
Setting: 8-mer, flanks averaged, mean of 2 arrays, mostly near background
Target sequence (chain): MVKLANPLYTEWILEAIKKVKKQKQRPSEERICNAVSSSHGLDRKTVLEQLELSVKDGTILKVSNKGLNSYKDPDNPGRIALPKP
Oligonucleotide	E-score
ACCACCCA	-0.159
TCATGCCA	-0.252
AGGGTTCA	-0.109
CCCACGCC	0.0567
GCGAACCC	0.307
GCTTTCTA	-0.0927
GACTATAA	-0.0899
CAAGTCGA	-0.216

Study 4 — read-out: enzyme activity; action: inhibitor; tested at: 0.5 µM; baseline: control
Target: MAP kinase-interacting serine/threonine-protein kinase 1 (MKNK1, Homo sapiens, UniProt Q9BUB5)
Chain of UniProt Q9BUB5 (whole entry, looked up): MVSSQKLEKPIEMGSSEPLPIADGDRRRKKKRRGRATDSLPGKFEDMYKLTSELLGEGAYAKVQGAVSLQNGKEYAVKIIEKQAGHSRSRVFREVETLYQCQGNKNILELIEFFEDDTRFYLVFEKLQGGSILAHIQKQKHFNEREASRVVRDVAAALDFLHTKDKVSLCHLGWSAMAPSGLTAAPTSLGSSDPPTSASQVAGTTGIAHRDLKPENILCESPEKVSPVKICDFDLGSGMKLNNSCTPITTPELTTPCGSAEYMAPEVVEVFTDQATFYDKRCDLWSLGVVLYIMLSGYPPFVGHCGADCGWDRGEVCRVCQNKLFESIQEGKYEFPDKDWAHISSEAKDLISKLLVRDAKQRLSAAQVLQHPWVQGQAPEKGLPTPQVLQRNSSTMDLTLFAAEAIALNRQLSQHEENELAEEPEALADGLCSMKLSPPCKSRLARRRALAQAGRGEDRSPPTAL
Compound	remaining activity
Cc1nc2cc3nc(-c4cccs4)cnc3cc2n1C	92.7%
CN(C)C[C@H]1CCn2c(c(C3=C(c4cn(C)c5ccccc45)C(=O)NC3=O)c3ccccc32)C1	100%
Cn1nc2c3c(cccc31)C(=O)c1ccccc1-2	105%
CCN(CC)C(=O)c1ccc(Nc2nc(OCC3CCCCC3)c3[nH]cnc3n2)cc1	97.5%
c1ccc(-c2cnc(Nc3ccc(OCCN4CCCC4)cc3)s2)cc1	64.7%

Further values, each from its own experiment
Structure (SMILES)	test system	conditions	endpoint	value
CC(C)n1cnc(-c2ccc(F)cc2)c1-c1ncc(C(=O)Nc2ccc(N3CCN(C)CC3)cc2)[nH]1	human, idiopathic pulmonary fibrosis	60 mg once daily, trial, treatment-emergent	patients with left ventricular dysfunction	0%
O=C1CCC(N2Cc3cc(C4CCN(Cc5ccccc5)CC4)ccc3C2=O)C(=O)N1 (centres unmarked)	ICR mouse, male, plasma	intravenous, 1.0 mg/kg	Vss	9.39 L/kg

Some of these lines once more (study 3):
Oligonucleotide	E-score
AGGGTTCA	-0.109
CCCACGCC	0.0567
GCGAACCC	0.307
GCTTTCTA	-0.0927
